# Experimental data gathered from unrelated publications.
# Compare with care: the assays were run in different laboratories. ± gives the spread as reported.
Compound,target or system,test,test system,setting,endpoint,result
C#Cc1cn([C@@H]2O[C@H](CO)C[C@H]2O)c2ncnc(N)c12,Trypanosoma equiperdum,"parasite growth, resazurin",,72 h,EC50,3 nM
Nc1ccn(C[C@@H](CO)OCP(=O)(O)OCCCS(=O)(=O)CCCCCCCCCCC2CCC2)c(=O)n1,human gammaherpesvirus 4,qPCR,Akata,3 days,EC50,14800 ± 25500 nM
CC(=O)[O-].O.[Cu+2].[O-]c1ccc(Br)cc1C=NCCN1CCOCC1,Aspergillus niger,,,20 µL of 100 µM per disc,inhibition zone diameter,26 mm
CC(C)CCCc1ccc2c(c1)C(=O)C(Br)=C(Br)C2=O,Leishmania infantum,parasite growth,,"72 h, promastigote",EC50,11700 nM
CC1(CCCCCCCCCCCCCCOCCCOP(=O)(O)CO[C@H](CO)Cn2ccc(N)nc2=O)COC1,human alphaherpesvirus 1,cytopathic effect,"HFF, E-377",,EC50,1470 ± 1730 nM
C=Cc1cn([C@@H]2O[C@H](CO)C[C@H]2O)c2ncnc(N)c12,Trypanosoma equiperdum,"parasite growth, resazurin",,72 h,EC50,11 nM
COc1cc(CNC(=O)C[C@H](C)CCC=C(C)C)ccc1OCc1cn(-c2ccc(Cl)cc2Cl)nn1,Malme-3M melanoma cells,SRB,,"10 µM, 48 h",growth percent,79.3%
CCCCCCSc1cccc(O)c(=O)c1O,human alphaherpesvirus 1,"viral replication, plaque reduction",Vero,,EC50,930 ± 80 nM
Nc1nc2c(ncn2COCCOC(=O)[C@@H](N)CS)c(=O)[nH]1,human alphaherpesvirus 1,"viral cytopathic effect, CPE inhibition",,,EC50,5400 nM
CC1(CCCCCCCCCCCCOCCCOP(=O)(O)CO[C@H](CO)Cn2ccc(N)nc2=O)COC1,human alphaherpesvirus 1,cytopathic effect,"HFF, E-377",,EC50,2380 ± 2900 nM
COc1cc(OC(C)=O)c2cc3c(cc2c1OC(C)=O)CCCC3(C)C,Leishmania infantum,parasite growth,,"72 h, promastigote",EC50,16600 nM
Nc1ccn(C[C@@H](CO)OCP(=O)(O)OCCCS(=O)(=O)CCCCCCCCCCCCC2CCC2)c(=O)n1,human gammaherpesvirus 4,qPCR,Akata,3 days,EC50,140 ± 110 nM
CCNC1=C(Cl)C(=O)c2cc3c(cc2C1=O)CCCC3(C)C,Leishmania infantum,parasite growth,,"72 h, promastigote",EC50,12500 nM
CCCCCCSc1ccc(SCCCCCC)c(O)c(=O)c1O,human alphaherpesvirus 1,"viral replication, plaque reduction",Vero,,EC50,80 nM
Nc1ncnc2c1c(I)cn2[C@@H]1O[C@H](CO)C[C@H]1O,Trypanosoma equiperdum,"parasite growth, resazurin",,72 h,EC50,2 nM
Nc1ccn(C[C@@H](CO)OCP(=O)(O)OCCCS(=O)(=O)CCCCCCCCCCCCCC2CCC2)c(=O)n1,human gammaherpesvirus 4,qPCR,Akata,3 days,EC50,80 ± 70 nM
Nc1ncnc2c1ccn2[C@H]1C[C@H](O)[C@@H](CO)O1,Trypanosoma equiperdum,"parasite growth, resazurin",,72 h,EC50,17000 nM
CC1CCC2(C(=O)OCc3ccccc3)CCC3(C)C(=CCC4C5(C)CCC(OC6OC(CO)C(OC7OC(C)C(O)C(O)C7O)C(O)C6OC6OC(C)C(O)C(O)C6O)C(C)(C)C5CCC43C)C2C1C (stereo not drawn),PRRSV,"viral replication, immunofluorescence","MARC-145, GD-XH",48 h p.i.,EC50,5020 ± 370 nM
CCOC(=O)[C@@H](C)NP(=O)(CO[C@H](CF)Cn1cnc(N)nc1=O)N[C@H](C)C(=O)OCC,human adenovirus 2,cytopathic effect,,,EC50,> 100000 nM
Nc1ncnc2c1c(C(F)(F)F)cn2[C@@H]1O[C@H](CO)[C@@H](O)[C@H]1O,Trypanosoma equiperdum,"parasite growth, resazurin",,72 h,EC50,190 nM
CC(C)=CCCC1=CCC2=C(C1)C(=O)c1ccccc1C2=O,Leishmania infantum,,"intracellular amastigotes, ex vivo mouse splenic explants",72 h,EC50,21500 ± 1100 nM
Nc1nc2c(ncn2COCCOC(=O)[C@@H](N)CO)c(=O)[nH]1,human alphaherpesvirus 1,"viral cytopathic effect, CPE inhibition",,,EC50,6300 nM
CC1(CCCCCCCCCCOCCCOP(=O)(O)CO[C@H](CO)Cn2ccc(N)nc2=O)COC1,human gammaherpesvirus 4,qPCR,Akata,3 days,EC50,9940 ± 13200 nM
COc1cc(CNC(=O)C[C@H](C)CCC=C(C)C)ccc1OCc1cn(-c2ccc(F)cc2)nn1,OVCAR-8 ovarian cancer cells,SRB,,"10 µM, 48 h",growth percent,52.3%
CCCCSc1ccc(SCCCC)c(O)c(=O)c1O,human alphaherpesvirus 1,"viral replication, plaque reduction",Vero,,EC50,260 ± 60 nM
Nc1ncnc2c1c(Br)cn2[C@@H]1O[C@H](CO)C[C@H]1O,Trypanosoma equiperdum,"parasite growth, resazurin",,72 h,EC50,0.5 nM
CC(C)=CCCC1=CCC2C(=O)c3ccccc3C(=O)C2C1 (stereo not drawn),Leishmania infantum,parasite growth,,"72 h, promastigote",EC50,69600 nM

# Excerpt of the above:
Compound,target or system,test,test system,setting,endpoint,result
CCCCSc1ccc(SCCCC)c(O)c(=O)c1O,human alphaherpesvirus 1,"viral replication, plaque reduction",Vero,,EC50,260 ± 60 nM
CCCCCCSc1cccc(O)c(=O)c1O,human alphaherpesvirus 1,"viral replication, plaque reduction",Vero,,EC50,930 ± 80 nM
